Results pooled from the literature.
Protocols differ between the studies behind these lines. Values joined by “and” are separate records of one study, mostly repeats; a detail may differ. ± gives the spread as reported.

| SMILES | test | system | conditions | how to read | endpoint | result |
| --- | --- | --- | --- | --- | --- | --- |
| CN1CCN(S(=O)(=O)c2cc([N+](=O)[O-])ccc2N(CCOS(C)(=O)=O)CCOS(C)(=O)=O)CC1 | – | naive NOD/SCID mice, pooled blood | intraperitoneal, 12.5 mg/kg, week 4 | – | amylase | 762 U/L |
| CCN1CCN(Cc2ccc(Nc3ncc(F)c(-c4cc(F)c5nc6n(c5c4)[C@H](C)CCC6)n3)nc2)CC1 | – | advanced solid tumour patients | dose not given, Phase Ia monotherapy | – | Neutropenia incidence, grade ≥3 | 8.3% |
| COc1cc2c(Oc3ccc4[nH]c(C)cc4c3F)ccnc2cc1OCC1(N)CC1 | – | paediatric recurrent refractory sarcoma | 10 mg | – | abdominal pain incidence | 50% |
| O=C(Nc1ccccc1)C1CCN(C(=O)Oc2cccnc2)CC1 | – | healthy women | oral, 100 mg, 9 days | – | adverse event Dyspnoea | 7.7% |
| COc1ncccc1-c1cnn2ccc(N3CCN(C(=O)OC(C)C)CC3)nc12 | – | rat, thermal hyperalgesia model, plasma | oral, 1 mg/kg, 180 min | – | drug concentration | 44 nM |
| Brc1ccc(Oc2cc(Br)c(Br)cc2Br)c(Br)c1 | – | whole cow milk | 200 nM nominal | – | dose fraction in skim milk | 6.97% |
| CN1CC[C@@H](c2c(O)cc(O)c3c(=O)cc(-c4ccc(C(F)(F)F)cc4Cl)oc23)[C@@H]1CO | item: Pneumonia | relapsed B-cell malignancies | oral, 200 mg, grade 3-4, intermittent dosing | – | patients with adverse event | 0% |
| O=c1nc(NO)ccn1[C@@H]1O[C@H](CO)[C@@H](O)[C@H]1O | – | rat fetus dialysate | 1000 ng/mL, high concentration, three cycles, added: molnupiravir 250 ng/mL | – | freeze-thaw stability | 97.6 ± 4.28% |
| C[C@@H]1OC(=O)NN=C1c1ccc(-c2ccc(F)cc2)c(C(F)(F)F)c1 | phase I trial, item: Dyspnoea worst grade 2 | human patients | dose not given, all dose groups | – | patients with adverse event | 20% |
| COc1cc(C(=O)NC2CCN(C)CC2)c(F)cc1Nc1ncc(C(F)(F)F)c(Oc2cccc3c2C(=O)N(C)C3)n1 | – | human patients, plasma | oral, 50 mg single dose, geometric mean | – | mean residence time | 32.5 h |
| NCCCC[C@@H]1NC(=O)[C@@H](Cc2c[nH]c3ccccc23)NC(=O)[C@H](c2ccccc2)NC(=O)[C@@H]2C[C@@H](OC(=O)NCCN)CN2C(=O)[C@H](Cc2ccccc2)NC(=O)[C@H](Cc2ccc(OCc3ccccc3)cc2)NC1=O | – | healthy human volunteers | 1950 µg twice daily | – | subjects with adverse event Flatulence | 8% |
| C[C@]1(CO)Cc2ncn(-c3ccc(C#N)c(Cl)c3)c2C(=O)O1 | – | human | 0.7 mg single dose | – | subjects with drug-related headache | 0% |
| Cn1cncc1-c1c(F)cncc1NC(=O)c1c(N)nn2cc(F)cnc12 | – | human patients | oral, 130 mg once daily, 21 days | – | dose-limiting toxicity platelet decrease | 0% |
| C[C@]1(O)C[C@@](N)(c2ccc(-c3nc4n(c3-c3ccccc3)COc3ccncc3-4)cc2)C1 | – | human, advanced or metastatic solid tumours | dose not given, once-daily dose escalation total | – | patients with any TEAE | 100% |
| CC(C)C[C@H](NC(=O)[C@H](C)NC(=O)[C@@H](NC(=O)[C@H](CCCNC(=N)N)NC(=O)[C@H](CC(C)C)NC(=O)[C@H](Cc1c[nH]c2ccccc12)NC(=O)[C@@H]1CCCN1C(=O)[C@@H](N)CCCCN)C(C)C)C(=O)N[C@@H](CS)C(=O)N1CCC[C@H]1C(=O)NCC(=O)O | – | sheep red blood cells | 128 µM, 1 h, 37 °C | – | hemolysis | 0.86% and 0.45% and 1.1% |
| CC(C)[C@@H]1NC(=O)CNC(=O)[C@H](CC(N)=O)NC(=O)[C@H](CCCNC(=N)N)NC(=O)[C@H](Cc2ccc(O)cc2)NC(=O)[C@H](C(C)C)NC(=O)[C@@H](NC(=O)[C@@H](NC(=O)[C@H](CC(N)=O)NC(=O)[C@H](Cc2c[nH]c3ccccc23)NC(=O)[C@H](C)NC(=O)[C@H](Cc2ccccc2)NC(=O)CN)C(C)C)CSSC[C@@H](C(=O)N[C@@H](Cc2cnc[nH]2)C(=O)N[C@@H](CCCNC(=N)N)C(=O)N[C@@H](CCCNC(=N)N)C(=O)N[C@@H](C)C(=O)N[C@@H](CC(N)=O)C(N)=O)NC(=O)[C@H](C(C)C)NC(=O)[C@H](CCCNC(=N)N)NC1=O | – | ICR mice, blood | intraductal mammary, 5 mg/kg, day 5 | – | monocytes | 2.69 ± 0.15% |
| COc1cccc(Oc2ccccc2NC(=O)CNC(=O)c2cccc3ccccc23)c1 | – | esterase-deficient SCID mice, male | oral, 40 mg/kg/day, 14 days, toxicity study | – | serum albumin | 3 g/dL |
| CC(=O)NCC(=O)NCC(=O)N[C@H](C(=O)N[C@@H](Cc1ccc(O)cc1)C(=O)N[C@@H](CO)C(=O)N[C@H]1CSSC[C@@H](C(=O)N[C@@H](CCCNC(=N)N)C(=O)N2CCC[C@H]2C(=O)N[C@@H](CCC(N)=O)C(=O)N[C@@H](CCCNC(=N)N)C(=O)NCC(=O)NCCC(=O)N[C@@H](CCCCNC(=O)CN(CC(=O)NCCCC[C@H](NC(=O)CCNC(=O)CNC(=O)[C@H](CCCNC(=N)N)NC(=O)[C@H](CCC(N)=O)NC(=O)[C@@H]2CCCN2C(=O)[C@H](CCCNC(=N)N)NC(=O)[C@@H]2CSSC[C@H](NC(=O)[C@H](CO)NC(=O)[C@H](Cc3ccc(O)cc3)NC(=O)[C@@H](NC(=O)CNC(=O)CNC(C)=O)[C@@H](C)O)C(=O)N[C@@H](Cc3c[nH]cn3)C(=O)N[C@@H](Cc3ccccc3)C(=O)NCC(=O)N[C@@H](C)C(=O)N[C@@H](CC(C)C)C(=O)N[C@@H]([C@@H](C)O)C(=O)N[C@@H](Cc3c[nH]c4ccccc34)C(=O)N[C@@H](C(C)C)C(=O)N2)C(N)=O)C(=O)CCN)C(N)=O)NC(=O)[C@H](C(C)C)NC(=O)[C@H](Cc2c[nH]c3ccccc23)NC(=O)[C@H]([C@@H](C)O)NC(=O)[C@H](CC(C)C)NC(=O)[C@H](C)NC(=O)CNC(=O)[C@H](Cc2ccccc2)NC(=O)[C@H](Cc2c[nH]cn2)NC1=O)[C@@H](C)O | MSD immunoassay | BALB/c mice, healthy female, serum | subcutaneous, 0.08 mg/kg, 0 h, LLOQ 2.0 ng/mL | – | serum concentration | not detected |

| SMILES | test | system | conditions | how to read | endpoint | result |
| --- | --- | --- | --- | --- | --- | --- |
| CCCCCCCCCCCCCCCC(=O)N[C@@H](CCC(=O)NCCCC[C@H](NC(=O)[C@H](CC(=O)O)NC(=O)[C@H](CO)NC(=O)[C@@H](NC(=O)[C@H](Cc1ccccc1)NC(=O)[C@@H](NC(=O)CNC(=O)[C@H](CCC(N)=O)NC(=O)[C@H](CO)NC(=O)[C@@H](N)Cc1c[nH]cn1)[C@@H](C)O)[C@@H](C)O)C(=O)N[C@@H](CO)C(=O)N[C@@H](CCC(=O)O)C(=O)N[C@@H](Cc1ccc(O)cc1)C(=O)N[C@@H](CC(C)C)C(=O)N[C@@H](CC(=O)O)C(=O)N[C@@H](CO)C(=O)N[C@@H](CCC(=O)O)C(=O)N[C@@H](CCCNC(=N)N)C(=O)N[C@@H](C)C(=O)N[C@@H](CCCNC(=N)N)C(=O)N[C@@H](CC(=O)O)C(=O)N[C@@H](Cc1ccccc1)C(=O)N[C@H](C(=O)N[C@@H](C)C(=O)N[C@@H](Cc1c[nH]c2ccccc12)C(=O)N[C@@H](CC(C)C)C(=O)N[C@@H](CCC(=O)O)C(=O)N[C@@H](C)C(=O)NCC(=O)NCC(=O)O)C(C)C)C(=O)O | item: Nausea | humans all renal groups | subcutaneous, 100 µg single dose | – | treatment-related adverse events | 32.4% |
| CCN1[C@@H](C(=O)NC23CCC(C(=O)O)(CC2)CC3)[C@H](c2cccc(Cl)c2F)[C@]2(C(=O)Nc3cc(Cl)ccc32)C12CCCCC2 | – | patients with advanced solid tumours | oral, 100 mg | – | Neutropenia incidence | 27.3% |
| Clc1ccc(-c2ccccc2)cc1 | – | Sprague-Dawley rats, female, serum | inhalation, 23 µg/rat, 2 h after exposure | – | creatinine | 0.3 ± 0.1 mg/dL |
| CC[C@H](C)[C@@H]1NC(=O)[C@@H]2CSSC[C@H](NC(=O)[C@H](CCCNC(=N)N)NC(=O)[C@@H]3CSSC[C@H](NC1=O)C(=O)N[C@@H]([C@@H](C)O)C(=O)N[C@@H](CCCNC(=N)N)C(=O)NCC(=O)N[C@@H](Cc1ccccc1)C(=O)N3)C(=O)N[C@@H](CC(C)C)C(=O)N[C@H]1CSSC[C@H](NC(=O)[C@H](C(C)C)NC(=O)CNC(=O)[C@H](CCCNC(=N)N)NC(=O)[C@H](CCCNC(=N)N)NC1=O)C(=O)N[C@@H](CCCNC(=N)N)C(=O)N2 | – | Sprague-Dawley rats, male, lung | 10 mg/kg | direction not given | foreign material score | 1 to 2 |
| O=C1Nc2cc3[nH]nc(-c4ccncc4)c3cc2CN1Cc1ccccc1 | CTCAE v4.03 | advanced solid tumour patients | intravenous, 6.4 mg/kg | – | patients with infusion reaction | 22% |
| O=C(O)CCCOc1ccc(F)cc1-c1cc(-c2ccccc2C(F)(F)F)n(-c2ccccc2)n1 | – | female Crl:CD(SD) rats | intravenous, 25 µg/kg, 14 d | – | haemoglobin | 14.4 g/dL and 15.1 g/dL and 15 g/dL and 14.6 g/dL and 15.4 g/dL |
| Cn1nc(NS(C)(=O)=O)c2c(Cl)ccc(-n3c([C@H](Cc4cc(F)cc(F)c4)NC(=O)Cn4nc(C(F)F)c5c4C(F)(F)[C@@H]4C[C@H]54)nc4nc(OCCC(F)(F)F)ccc4c3=O)c21 | item: blood triglycerides increased | human | 1875 mg, powder in bottle | – | drug-related adverse events | 0% |
| Clc1cc2c(cc1Cl)Oc1c(ccc(Cl)c1Cl)O2 | ultrafiltration | cow milk whey | 20 nM nominal in whole milk | – | dose fraction in permeate | 13.3% |
| O=C(Nc1ccc2c(c1)B(O)OC2)c1ccc(OCc2ccc(Cl)cc2)cc1 | PAMPA | pre-coated trilayer membrane | 200 µM, 5 h, pH 7.4, acceptor plate, PBS | – | acceptor concentration | 19 ± 0.8 µM |
| C/C(=N\C#N)N(C)Cc1ccc(Cl)nc1 | – | test soil | 0.12 mg/kg nominal, 28 days | – | measured soil concentration | 0.02 mg/kg dry soil |
| CCc1ccc(CC/C=C/c2ccc3c(c2)C(=O)CC3)cc1 | – | Sprague-Dawley rat, female, blood | oral, 30 mg/kg/day, 14 days | – | MCV | 58.8 fL |
| CCCCCCCCCCC[C@H](OC1OC[C@H](O)[C@@H](O)[C@@H]1O)[C@H](O)[C@H](O)C[C@@H]1CC(=O)N[C@H](CO)C(=O)N[C@H]([C@H](O)c2ccc(O)cc2)C(=O)N[C@H](CCN)C(=O)NCC(=O)N[C@@H](CC(N)=O)C(=O)N[C@@H](CO)C(=O)N[C@@H]([C@H](O)C(N)=O)C(=O)N1 (stereo partly drawn) | LC-MS/MS | rabbit plasma | 800 ng/mL, 3 freeze-thaw cycles | baseline: nominal concentration | freeze-thaw stability, deviation | -0.802% |
| C[C@@H](NC(=O)N1C(=O)[C@H](Cc2ccnc(N)c2)[C@H]1C(=O)O)C1CCCCC1 | – | healthy adult Chinese volunteers | continuous intravenous infusion, 0.3 mg/kg/h, 5-day infusion, CTCAE 5.0 grading | – | incidence of grade 3 or higher AEs | 0% |
| CCC[C@H]1CC[C@H](c2ccc(-c3ccc(F)cc3)cc2)CC1 | – | rat, fetus | 5000 ng/mL in perfusate, high dose, mixture of 21 LCMs | – | median fetal accumulation | 0.81 ng/g |
| CO[C@H]1C[C@@H]2CC[C@@H](C)[C@@](O)(O2)C(=O)C(=O)N2CCCC[C@H]2C(=O)O[C@H]([C@H](C)C[C@@H]2CC[C@@H](OC(=O)NCCOCCOCCOCCOCCOCCOCCOCCOCCC(=O)N3CCc4cc(Cn5nc(-c6ccc7oc(N)nc7c6)c6c(N)ncnc65)ccc4C3)[C@H](OC)C2)C[C@@H](O)[C@H](C)/C=C(\C)[C@@H](O)[C@@H](OC)C(=O)[C@H](C)C[C@H](C)/C=C/C=C/C=C/1C | – | patients with advanced solid tumours | intravenous, 8 mg weekly, grade 3 or higher | – | AE leading to dose interruption | 31.3% |
| CC(=O)c1c(C)c2cnc(Nc3ccc(C4CCN(CCS(C)(=O)=O)CC4)cn3)nc2n(C2CCCC2)c1=O | – | HR+/HER2- advanced breast cancer patients | oral, 100 mg bid, all grades, monotherapy arm | – | patients with hypertriglyceridaemia | 20% |
| COc1ccc(C[C@@H]2NC(=O)[C@H]([C@@H](C)O)NC(=O)[C@@H]3[C@@H]4CCN3C(=O)[C@@H]3Cc5cn(c6ccc(F)cc56)CCCCCCN(Cc5ccc(cc5)CCNC(=O)[C@]5(C)CCCN5C2=O)C(=O)CCC(=O)N[C@@H](C)C(=O)N[C@H](CNC(=O)CCCCC[N+](C)(C)C)C(=O)N[C@@H](Cc2cccc(c2)CNC(=O)CO4)C(=O)N3)cc1 | item: Restlessness | humans | concentration not given, Study-003 | – | participants with adverse event | 0% |
| O=C(c1ccc(F)c(F)c1Nc1ccc(I)cc1F)N1CC(O)([C@@H]2CCCCN2)C1 | – | patients aged sample A to sample B years | oral, dose not given | – | SAE leading dose modification | 0% |

Repeated from above:
| SMILES | test | system | conditions | how to read | endpoint | result |
| --- | --- | --- | --- | --- | --- | --- |
| NCCCC[C@@H]1NC(=O)[C@@H](Cc2c[nH]c3ccccc23)NC(=O)[C@H](c2ccccc2)NC(=O)[C@@H]2C[C@@H](OC(=O)NCCN)CN2C(=O)[C@H](Cc2ccccc2)NC(=O)[C@H](Cc2ccc(OCc3ccccc3)cc2)NC1=O | – | healthy human volunteers | 1950 µg twice daily | – | subjects with adverse event Flatulence | 8% |
| O=C(Nc1ccc2c(c1)B(O)OC2)c1ccc(OCc2ccc(Cl)cc2)cc1 | PAMPA | pre-coated trilayer membrane | 200 µM, 5 h, pH 7.4, acceptor plate, PBS | – | acceptor concentration | 19 ± 0.8 µM |
| C[C@@H]1OC(=O)NN=C1c1ccc(-c2ccc(F)cc2)c(C(F)(F)F)c1 | phase I trial, item: Dyspnoea worst grade 2 | human patients | dose not given, all dose groups | – | patients with adverse event | 20% |
